Experimental data pooled from the literature.
Each line is one published result; not all experiments were run side by side. ± marks the error that the study gave.
TRPM channel TRPM_PZQ: TRPM channel TRPM_PZQ (Fasciola hepatica, UniProt A0A4E0RBW4)
Sequence of UniProt Q16819 (whole entry, looked up): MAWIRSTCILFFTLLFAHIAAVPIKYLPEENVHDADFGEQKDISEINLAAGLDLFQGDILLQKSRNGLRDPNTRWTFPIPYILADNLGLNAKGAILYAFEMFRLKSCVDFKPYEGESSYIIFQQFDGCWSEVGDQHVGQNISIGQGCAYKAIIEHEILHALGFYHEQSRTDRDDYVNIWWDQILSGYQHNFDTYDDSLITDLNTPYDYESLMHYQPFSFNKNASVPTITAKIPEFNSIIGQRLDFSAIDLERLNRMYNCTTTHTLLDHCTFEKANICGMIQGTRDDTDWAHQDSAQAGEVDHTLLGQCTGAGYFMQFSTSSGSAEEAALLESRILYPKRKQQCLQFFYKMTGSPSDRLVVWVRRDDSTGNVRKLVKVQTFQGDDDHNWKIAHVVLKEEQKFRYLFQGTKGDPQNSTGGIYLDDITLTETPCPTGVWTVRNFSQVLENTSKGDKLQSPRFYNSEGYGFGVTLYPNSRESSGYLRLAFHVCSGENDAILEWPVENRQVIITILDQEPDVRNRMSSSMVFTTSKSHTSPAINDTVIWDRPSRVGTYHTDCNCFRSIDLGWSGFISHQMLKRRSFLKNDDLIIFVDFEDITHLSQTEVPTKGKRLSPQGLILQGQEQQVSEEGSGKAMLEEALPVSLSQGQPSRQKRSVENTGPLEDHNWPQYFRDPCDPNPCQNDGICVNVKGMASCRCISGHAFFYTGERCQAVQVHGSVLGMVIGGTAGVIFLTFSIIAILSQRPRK
Sequence of UniProt P28072 (whole entry, looked up): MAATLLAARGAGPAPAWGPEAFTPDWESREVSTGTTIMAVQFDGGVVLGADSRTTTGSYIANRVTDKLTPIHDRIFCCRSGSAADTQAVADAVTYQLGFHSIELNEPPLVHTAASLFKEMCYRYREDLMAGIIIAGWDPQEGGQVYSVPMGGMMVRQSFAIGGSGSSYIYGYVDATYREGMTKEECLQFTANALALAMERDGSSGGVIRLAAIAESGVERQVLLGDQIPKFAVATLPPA
Sequence of UniProt P35462 (whole entry, looked up): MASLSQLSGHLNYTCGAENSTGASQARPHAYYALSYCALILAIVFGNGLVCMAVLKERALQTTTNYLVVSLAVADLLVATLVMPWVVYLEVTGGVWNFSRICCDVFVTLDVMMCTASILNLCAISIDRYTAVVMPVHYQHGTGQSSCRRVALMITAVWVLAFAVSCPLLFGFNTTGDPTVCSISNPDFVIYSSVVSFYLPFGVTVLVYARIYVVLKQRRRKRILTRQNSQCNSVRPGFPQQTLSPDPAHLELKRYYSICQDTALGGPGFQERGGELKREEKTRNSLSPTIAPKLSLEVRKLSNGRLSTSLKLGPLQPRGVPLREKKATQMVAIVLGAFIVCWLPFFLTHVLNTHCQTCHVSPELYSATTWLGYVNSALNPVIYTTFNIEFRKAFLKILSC
Sequence of UniProt P48546 (whole entry, looked up): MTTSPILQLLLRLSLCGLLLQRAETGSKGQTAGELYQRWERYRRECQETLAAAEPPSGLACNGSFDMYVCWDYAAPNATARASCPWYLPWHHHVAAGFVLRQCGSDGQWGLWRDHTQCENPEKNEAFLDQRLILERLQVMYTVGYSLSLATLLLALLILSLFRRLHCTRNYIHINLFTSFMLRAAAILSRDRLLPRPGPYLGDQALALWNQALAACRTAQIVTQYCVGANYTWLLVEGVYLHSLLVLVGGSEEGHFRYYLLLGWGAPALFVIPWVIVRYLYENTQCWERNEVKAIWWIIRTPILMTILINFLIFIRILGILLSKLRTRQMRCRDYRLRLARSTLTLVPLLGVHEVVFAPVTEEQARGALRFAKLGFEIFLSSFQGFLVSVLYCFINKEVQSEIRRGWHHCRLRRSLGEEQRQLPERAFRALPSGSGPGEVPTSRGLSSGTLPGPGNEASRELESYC
Sequence of UniProt P05413 (whole entry, looked up): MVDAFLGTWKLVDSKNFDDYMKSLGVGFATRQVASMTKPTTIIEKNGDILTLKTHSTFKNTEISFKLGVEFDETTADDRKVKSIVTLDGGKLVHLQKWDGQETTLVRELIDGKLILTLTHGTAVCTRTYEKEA
Sequence of UniProt P06401 (whole entry, looked up): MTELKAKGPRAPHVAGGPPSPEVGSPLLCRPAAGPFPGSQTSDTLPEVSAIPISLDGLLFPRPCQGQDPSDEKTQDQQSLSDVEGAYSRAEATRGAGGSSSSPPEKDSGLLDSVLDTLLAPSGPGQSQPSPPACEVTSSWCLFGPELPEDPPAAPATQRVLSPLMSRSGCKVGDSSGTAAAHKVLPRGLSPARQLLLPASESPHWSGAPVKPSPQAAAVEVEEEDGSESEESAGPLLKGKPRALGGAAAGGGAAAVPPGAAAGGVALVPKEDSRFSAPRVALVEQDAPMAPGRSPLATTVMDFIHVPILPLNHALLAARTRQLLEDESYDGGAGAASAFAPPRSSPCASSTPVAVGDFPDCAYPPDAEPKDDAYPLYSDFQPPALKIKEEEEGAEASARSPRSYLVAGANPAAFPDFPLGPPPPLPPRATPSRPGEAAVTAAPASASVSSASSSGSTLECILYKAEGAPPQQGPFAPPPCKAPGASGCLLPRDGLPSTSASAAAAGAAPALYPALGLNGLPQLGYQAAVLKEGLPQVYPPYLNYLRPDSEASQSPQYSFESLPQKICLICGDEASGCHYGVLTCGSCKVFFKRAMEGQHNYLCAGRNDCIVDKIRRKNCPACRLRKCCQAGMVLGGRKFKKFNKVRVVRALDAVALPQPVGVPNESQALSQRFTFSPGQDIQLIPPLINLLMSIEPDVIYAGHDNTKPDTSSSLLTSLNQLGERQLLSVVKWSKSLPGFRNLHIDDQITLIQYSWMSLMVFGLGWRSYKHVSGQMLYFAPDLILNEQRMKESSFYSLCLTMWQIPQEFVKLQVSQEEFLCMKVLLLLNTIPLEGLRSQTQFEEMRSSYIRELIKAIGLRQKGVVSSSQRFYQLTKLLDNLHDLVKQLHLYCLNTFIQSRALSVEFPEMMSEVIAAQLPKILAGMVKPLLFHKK
Sequence of UniProt P13569 (whole entry, looked up): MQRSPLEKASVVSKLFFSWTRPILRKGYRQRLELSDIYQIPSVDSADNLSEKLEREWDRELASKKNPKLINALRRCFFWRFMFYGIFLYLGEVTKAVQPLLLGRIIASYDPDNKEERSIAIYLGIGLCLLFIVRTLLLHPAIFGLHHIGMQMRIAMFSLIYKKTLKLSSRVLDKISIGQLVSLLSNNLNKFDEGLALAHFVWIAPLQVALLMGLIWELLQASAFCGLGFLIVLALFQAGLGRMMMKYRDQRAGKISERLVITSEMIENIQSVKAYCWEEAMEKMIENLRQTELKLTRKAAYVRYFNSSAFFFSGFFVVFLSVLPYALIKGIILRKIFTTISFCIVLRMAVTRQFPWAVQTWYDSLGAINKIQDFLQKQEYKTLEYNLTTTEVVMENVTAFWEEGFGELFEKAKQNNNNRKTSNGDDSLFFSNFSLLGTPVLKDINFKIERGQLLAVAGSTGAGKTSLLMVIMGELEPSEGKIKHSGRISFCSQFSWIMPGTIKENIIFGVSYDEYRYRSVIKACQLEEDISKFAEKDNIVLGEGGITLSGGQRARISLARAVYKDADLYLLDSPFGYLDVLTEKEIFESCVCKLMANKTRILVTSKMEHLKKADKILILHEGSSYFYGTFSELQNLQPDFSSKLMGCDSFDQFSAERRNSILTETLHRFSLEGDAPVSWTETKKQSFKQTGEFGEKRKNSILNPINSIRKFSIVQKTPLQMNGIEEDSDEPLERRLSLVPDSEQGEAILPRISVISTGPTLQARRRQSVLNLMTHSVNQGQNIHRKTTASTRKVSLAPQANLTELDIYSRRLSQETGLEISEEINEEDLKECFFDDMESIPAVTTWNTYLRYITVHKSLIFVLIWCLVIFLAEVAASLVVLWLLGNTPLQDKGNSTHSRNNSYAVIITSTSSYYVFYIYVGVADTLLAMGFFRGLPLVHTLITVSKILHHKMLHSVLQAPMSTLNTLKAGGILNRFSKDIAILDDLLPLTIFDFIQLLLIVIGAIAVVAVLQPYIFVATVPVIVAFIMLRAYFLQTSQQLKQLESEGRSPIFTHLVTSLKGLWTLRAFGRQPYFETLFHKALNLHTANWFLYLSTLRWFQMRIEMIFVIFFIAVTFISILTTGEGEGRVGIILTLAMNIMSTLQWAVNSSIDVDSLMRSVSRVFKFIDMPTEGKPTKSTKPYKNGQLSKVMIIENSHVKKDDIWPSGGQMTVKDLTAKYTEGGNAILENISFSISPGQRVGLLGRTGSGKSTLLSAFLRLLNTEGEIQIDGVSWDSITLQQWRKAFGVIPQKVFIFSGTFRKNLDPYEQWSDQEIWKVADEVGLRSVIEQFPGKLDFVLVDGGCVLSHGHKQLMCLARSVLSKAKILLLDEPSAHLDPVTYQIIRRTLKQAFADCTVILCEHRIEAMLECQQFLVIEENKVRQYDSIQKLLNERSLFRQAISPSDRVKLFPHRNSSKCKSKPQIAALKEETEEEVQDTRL

| SMILES | target | test | system | setting | quantity | result |
| --- | --- | --- | --- | --- | --- | --- |
| C[C@@H](COc1ccc(F)cc1)C(=O)n1nc(N)c2ccc(CO)cc21 | CFTR (Homo sapiens, UniProt P13569) | ion current, potentiator, inside-out patch clamp |  | fully phosphorylated, together with: 3 mM ATP | EC50 | 64 ± 25 nM |
| C=C(NC(=O)C(=C)NC(=O)c1csc(C2=NC3c4csc(n4)C4NC(=O)c5csc(n5)C(C(C)(O)C(C)O)NC(=O)C5CSC(=N5)C(=CC)NC(=O)C(C(C)O)NC(=O)c5csc(n5)C3(CC2)NC(=O)C(C)NC(=O)C(=C)NC(=O)C(Cc2ccc(O)cc2)NC(=O)C(C(C)CC)NC2C=Cc3c(C(C)O)cc(nc3C2O)C(=O)OC4C)n1)C(N)=O (stereo not drawn) | PSMB6 (Homo sapiens, UniProt P28072) | caspase-like activity, inhibitor | purified human 20S proteasome | 37 °C, 15 min preincubation, together with: Ac-Nle-Pro-Nle-Asp-AMC | IC50 | 580 ± 90 nM |
| OC1(c2ccc(Cl)cc2)CCN(Cc2c[nH]c3ccccc23)CC1 | DRD3 (Homo sapiens, UniProt P35462) |  |  |  | Ki | 54.1 ± 13 nM |
| O=C(Nn1c(-c2cccc(Cl)c2)nc2ccccc2c1=O)c1ccccc1F | TRPM channel TRPM_PZQ |  |  |  | EC50 | 3000 ± 570 nM |
| O=C(O)CCCOc1ccc(F)cc1-c1cc(-c2ccccc2C(F)(F)F)n(-c2ccccc2)n1 | Fatty acid-binding protein, heart (Homo sapiens, UniProt P05413) | binding |  |  | Kd | 24 ± 7 nM |
| C[C@]12C[C@H](c3ccc(S(C)(=O)=O)cc3)C3=C4CC[C@@H](O)C=C4CC[C@H]3[C@@H]1CC[C@@]2(O)C(F)(F)C(F)(F)F | PGR (Homo sapiens, UniProt P06401) | reporter gene, antagonist, luciferase |  |  | IC50 | 5.3 nM |
| CC[C@H](C)[C@H](NC(=O)[C@H](CO)NC(=O)[C@H](Cc1ccc(O)cc1)NC(=O)[C@H](CC(=O)O)NC(=O)[C@H](CO)NC(=O)[C@@H](NC(=O)[C@H](Cc1ccccc1)NC(=O)[C@@H](NC(=O)CNC(=O)[C@@H](N)CCC(=O)O)[C@@H](C)O)[C@@H](C)CC)C(=O)N[C@@H](C)C(=O)N[C@@H](CCSC)C(=O)N[C@@H](CC(=O)O)C(=O)N[C@@H](CCCCN)C(=O)N[C@H](C(=O)N[C@@H](Cc1c[nH]cn1)C(=O)N[C@@H](CCC(N)=O)C(=O)N[C@@H](CCC(N)=O)C(=O)N[C@@H](CC(=O)O)C(=O)N[C@@H](Cc1ccccc1)C(=O)N[C@H](C(=O)N[C@@H](CC(N)=O)C(=O)N[C@@H](Cc1c[nH]c2ccccc12)C(=O)N[C@@H](CC(C)C)C(=O)N[C@@H](CC(C)C)C(=O)N[C@@H](C)C(=O)N[C@@H](CCC(N)=O)C(=O)N[C@@H](CCCCN)C(N)=O)C(C)C)[C@@H](C)CC | GIPR (Homo sapiens, UniProt P48546) | cAMP accumulation, antagonist | COS-7 transfected | 10 min preincubation, together with: GIP(1-42) at 50 to 80% Emax | IC50 | 11.7 nM |
| O=C(Nn1c(-c2cccc(Cl)c2)nc2ccccc2c1=O)c1ccccc1 | TRPM channel TRPM_PZQ |  |  |  | EC50 | 1080 ± 60 nM |
| O=C(Cc1c(-c2ccccc2)n[nH]c1-c1ccccc1)NO | MEP1A (Homo sapiens, UniProt Q16819) | enzyme activity, inhibitor |  |  | Ki | 1 nM |

Some of these lines once more:
| SMILES | target | test | system | setting | quantity | result |
| --- | --- | --- | --- | --- | --- | --- |
| C=C(NC(=O)C(=C)NC(=O)c1csc(C2=NC3c4csc(n4)C4NC(=O)c5csc(n5)C(C(C)(O)C(C)O)NC(=O)C5CSC(=N5)C(=CC)NC(=O)C(C(C)O)NC(=O)c5csc(n5)C3(CC2)NC(=O)C(C)NC(=O)C(=C)NC(=O)C(Cc2ccc(O)cc2)NC(=O)C(C(C)CC)NC2C=Cc3c(C(C)O)cc(nc3C2O)C(=O)OC4C)n1)C(N)=O (stereo not drawn) | PSMB6 (Homo sapiens, UniProt P28072) | caspase-like activity, inhibitor | purified human 20S proteasome | 37 °C, 15 min preincubation, together with: Ac-Nle-Pro-Nle-Asp-AMC | IC50 | 580 ± 90 nM |
